Experimental data of several laboratories.
Several values in a cell are separate wells, animals, samples, runs or records. ± marks the error that the study gave. In brackets after ≈: the same amount, converted by molar mass.

| SMILES | target or system | test | test system | conditions | how to read | quantity | result |
| --- | --- | --- | --- | --- | --- | --- | --- |
| Cc1cc(C(=O)Nc2nc3cccc(C)c3n2[C@H]2CCCCN(C(=O)/C=C/CN(C)C)C2)ccn1 | Trypanosoma brucei brucei |  | CLK1 C215S mutant expressing | 10 x EC50, 24 h |  | cell growth | 633% and 667% |
| O=S(=O)(c1ccc(-c2ccc3ncnc(Nc4ccc(OCc5ccc(F)cc5)c(Cl)c4)c3c2)cc1)N1CCOCC1 | Trypanosoma cruzi | intracellular amastigote growth, β-galactosidase CPRG | 3T3, Tulahuen, β-galactosidase-expressing | 10 µM, 96 h |  | inhibition | 0% |
| COc1ccccc1-c1n[nH]c2nc(NC3CCN(C(=O)Cc4ccc(F)cc4F)CC3)ncc12 |  | bead binding, competition bead pull-down, item: LINJ.35.3280 | Leishmania donovani axenic amastigote extract | 10 µM | baseline: vehicle | relative abundance | 0.99 |
| CC(=O)CCC1C(=O)NC(C(C)C)C(=O)NC(Cc2cc(O)cc(F)c2)C(=O)N2CCCC(N2)C(=O)OC(C(C)=CC=CC(=O)N2CCCCO2)CC=CC=CC(O)C(C)C1O (stereo not shown) | Hepatitis C virus | viral replication | Huh7, Con1 replicon | 5% fetal bovine serum |  | EC50 | 15 ± 1 nM |
| NCCCO.O=C(O)C(Cl)Cl | Chenopodium album | herbicidal activity |  | 15 mg/mL, 21 days, pre-emergence greenhouse |  | inhibition | 0% |
| Oc1cc(Cl)ccc1Oc1ccc(Cl)cc1Cl | Mycobacterium marinum |  |  |  |  | MIC90 | 50 µM (≈ 14.5 µg/mL) |
| CCCCCCCCCC(=O)OCCSC[C@H](N)C(=O)N[C@H](CCN)C(=O)N[C@@H](CCN)C(=O)N[C@@H](CCN)C(=O)N[C@@H](CC(C)C)C(=O)N[C@H](Cc1ccccc1)C(=O)N[C@@H](CCN)C(=O)N[C@@H](CCN)C(=O)N[C@@H](CC(C)C)C(N)=O | Acinetobacter calcoaceticus | BHI agar spot plating |  | 24 h, 37 °C |  | MBC | 32 µM (≈ 38.2 µg/mL) |
| COC1(OC)CC[C@@]2(C)[C@H](CC[C@@H]3[C@@H]2CC[C@]2(C)[C@@H](C4=CC(=O)OC4)CC[C@]32O)C1 | Schistosoma mansoni | microscopic viability score | newly transformed schistosomula | 10 µM, 72 h |  | viability reduction | 32.3% |
| O=C(Oc1cc(OC(=O)c2cc(O)c(O)c(O)c2)c2ccccc2c1)c1cc(O)c(O)c(O)c1 | Herpes simplex virus 2 | viral replication, RT-qPCR | BEAS-2B, acyclovir-resistant |  |  | IC50 | 1830 ± 60 nM |
| O=C1NC2(CC2)COc2ncc(F)cc2[C@H]2COCCN2c2ccn3ncc1c3n2 |  |  | Sprague-Dawley rat, female, adrenals | oral, 20 mg/kg/day, 4 weeks dosing, end of recovery |  | organ-to-body weight ratio | 0.024 ± 0.002% |
| CCOC(=O)C1(Cc2ccc([N+](=O)[O-])cc2)Oc2cc(F)ccc2N(Cc2ccc([N+](=O)[O-])cc2)C1=O (stereo not shown) | Setaria viridis | fresh weight, greenhouse postemergence |  | postemergence, 150 g ai/ha, 21 days |  | inhibition | 49.4 ± 0.62% |
| CN(C)c1nc(NCc2ccc(F)cc2)c(/N=N/c2ccc(Cl)cc2)c(N(C)C)n1 | Ostrinia furnacalis | leaf dipping |  | 200 mg/L, 96 h |  | mortality | 100% |
| CC[C@H](C)[C@@H]1NC(=O)[C@H](CO)NC(=O)[C@H](CCCCN)NC(=O)[C@@H]2CSSC[C@@H](C(=O)N[C@@H](Cc3ccc(O)cc3)C(N)=O)NC(=O)[C@H](CCCCN)NC(=O)[C@@H]3CSSC[C@H](NC(=O)[C@H](CCCNC(=N)N)NC(=O)[C@H](CC(C)C)NC(=O)[C@H](CC(=O)O)NC(=O)[C@H](CC(=O)O)NC(=O)[C@H](CCC(=O)O)NC(=O)[C@H](CC(N)=O)NC(=O)[C@H](Cc4c[nH]c5ccccc45)NC(=O)[C@@H]4CCCN4C(=O)CNC(=O)[C@H](CC(N)=O)NC(=O)[C@@H](NC(=O)CNC(=O)[C@H](Cc4ccccc4)NC(=O)CN)CSSC[C@H](NC(=O)[C@H](Cc4ccc(O)cc4)NC(=O)CNC(=O)CNC(=O)[C@H](CCCCN)NC(=O)[C@H](Cc4ccc(O)cc4)NC(=O)CNC(=O)[C@H](CCCCN)NC1=O)C(=O)N[C@@H](C)C(=O)N[C@@H](CCCCN)C(=O)NCC(=O)NCC(=O)N[C@@H](Cc1ccccc1)C(=O)N[C@@H](C(C)C)C(=O)N3)C(=O)N[C@@H](Cc1c[nH]cn1)C(=O)N[C@@H](CC(N)=O)C(=O)N[C@@H](Cc1c[nH]cn1)C(=O)N2 | Streptococcus pneumoniae |  | 19F | 24 h |  | MBC | 0.25 µM (≈ 1.1 µg/mL) |
